Assay results from different studies.
Each numbered part is a random draw from the data of one study; scales do not carry over between parts. Positions count from the first letter of the parent shown.

Study 1 — method: RNAcompete; form: RNA; sample: in vitro; tested at: 20 nM; notes: 7-mer, probes averaged, single round; reference: mean of 7-mers; direction: higher = stronger binding
Target: PABPC1L2, full length, GST fusion (mouse, UniProt A0ABA7IW68)
Residues (chain): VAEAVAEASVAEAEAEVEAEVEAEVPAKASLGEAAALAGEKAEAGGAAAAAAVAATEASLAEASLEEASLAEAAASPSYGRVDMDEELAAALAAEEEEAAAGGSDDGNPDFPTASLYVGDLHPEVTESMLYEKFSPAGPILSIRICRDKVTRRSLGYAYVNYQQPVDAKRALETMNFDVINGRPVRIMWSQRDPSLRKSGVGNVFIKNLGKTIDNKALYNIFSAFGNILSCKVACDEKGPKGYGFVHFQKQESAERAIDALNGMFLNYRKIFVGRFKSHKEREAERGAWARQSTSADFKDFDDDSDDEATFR
| Strand | 7-mer Z-score |
| --- | --- |
| AGGCUAG | 0.173 |
| GCGGAUG | 0.0696 |
| UACAGCA | -0.0881 |
| CAGACUG | -0.159 |
| CUUUAGC | -0.144 |
| GAAAAUU | 2.97 |
| AUCAAUA | 0.0189 |
| CCCGGCA | -0.325 |
| GUUAACA | -0.0881 |
| UUAAAGA | 0.941 |
| CAAUAAU | 0.0243 |
| UAUAGGC | -0.0554 |
| ACGGACU | 0.0424 |
| CUAUUGU | -0.443 |
| UUUGGAG | -0.0573 |
| ACAUGGA | 0.236 |
| UCGUAAU | -0.403 |
| CGCAUAA | 0.36 |
| GACUAAA | 1.17 |
| AUGCCUC | -0.296 |
| AUUAGGG | 0.298 |
| GCAACUA | 0.119 |
| GCGUGAC | -0.139 |
| UGUCGAA | -0.246 |
| ACUAAAC | 0.615 |

Study 2 — target: CCND1, cyclin fold, Cln2 fusion (human); method: yeast growth competition, sequencing; sample: yeast; notes: weak parent motif; reference: not given; direction: higher = stronger binding
Parent: BRCA2 docking peptide (human); PSIKRNLLNEFDR; partner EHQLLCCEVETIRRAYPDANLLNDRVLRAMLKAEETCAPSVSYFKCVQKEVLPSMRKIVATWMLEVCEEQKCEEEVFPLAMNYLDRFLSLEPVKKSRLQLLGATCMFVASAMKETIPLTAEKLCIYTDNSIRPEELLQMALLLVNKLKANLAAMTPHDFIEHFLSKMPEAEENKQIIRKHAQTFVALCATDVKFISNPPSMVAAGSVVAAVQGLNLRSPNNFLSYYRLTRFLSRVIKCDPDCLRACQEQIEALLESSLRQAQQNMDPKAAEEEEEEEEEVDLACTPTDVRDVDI
| Substitution | normalised enrichment score |
| --- | --- |
| K4A | 1.01 |
| F11D | 0.202 |
| N9F | -0.151 |
| E10V | 0.0755 |
| E10Q | 0.0687 |
| L8H | 0.124 |
| D12H | 0.0585 |
| S2D | 1.06 |
| S2K | 0.785 |
| N6A | -0.062 |
| P1A | 0.381 |
| F11K | -0.48 |
| R5K F11L | -0.395 |
| L8Y | 0.25 |
| E10Y | 1.31 |
| E10M | 0.427 |
| L7T | 0.411 |
| R13K | 0.12 |
| P1D | 0.54 |
| S2T | 0.519 |
| N6W | 0.604 |

Study 3 — method: protein binding microarray; form: double-stranded DNA, one strand shown; sample: in vitro; tested at: not given; reference: not given; direction: higher = stronger binding
Target: Histone acetyltransferase KAT6A, winged helix 1, GST fusion (KAT6A, Homo sapiens, UniProt Q92794, residues 1-85)
Notes: 8-mer, flanks averaged, mean of 2 arrays, mostly near background
Residues (chain): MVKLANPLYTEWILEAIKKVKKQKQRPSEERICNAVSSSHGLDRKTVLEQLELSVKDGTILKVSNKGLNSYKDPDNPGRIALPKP
| Strand | E-score |
| --- | --- |
| CAAGACAA | -0.142 |
| AAATGGTC | -0.189 |
| CAAAGCCC | 0.0942 |
| ATCTTCAG | 0.0151 |
| TAGGACTA | -0.0698 |
| AGGAGCTG | -0.265 |
| ATTGGTGA | -0.214 |
| GGGAGTTA | -0.0315 |
| AAATAACT | -0.194 |
| ACAACGTC | -0.0316 |
| CCAATTTA | -0.194 |
| AAACCACC | -0.0464 |
| AGACTCTA | -0.134 |
| GAACCCCA | -0.172 |
| ATGGGTAG | -0.152 |
| TACGGCAA | 0.371 |
| CACAGGCC | -0.108 |
| CATGCCTA | -0.146 |
| ACGTGTGC | -0.19 |
| GGTTTTAC | 0.0174 |
| GCCAAGCA | -0.13 |
| GTACGGCA | 0.391 |
| GCTAGCCA | -0.0602 |
| CAAGATTA | -0.218 |
| TCGGAAGA | -0.0385 |

Study 4 — method: RNA Bind-n-Seq; form: RNA; sample: in vitro; tested at: 200 nM; notes: whole 134-nt RNA, ends assumed; added: 150 mM LiCl; reference: input library; direction: higher = stronger binding; library: 7-deaza-guanosine replaces G
Target: Ras GTPase-activating protein-binding protein 1, full length (G3BP1, Homo sapiens, UniProt Q13283)
Sequence of UniProt Q13283 (whole entry, looked up): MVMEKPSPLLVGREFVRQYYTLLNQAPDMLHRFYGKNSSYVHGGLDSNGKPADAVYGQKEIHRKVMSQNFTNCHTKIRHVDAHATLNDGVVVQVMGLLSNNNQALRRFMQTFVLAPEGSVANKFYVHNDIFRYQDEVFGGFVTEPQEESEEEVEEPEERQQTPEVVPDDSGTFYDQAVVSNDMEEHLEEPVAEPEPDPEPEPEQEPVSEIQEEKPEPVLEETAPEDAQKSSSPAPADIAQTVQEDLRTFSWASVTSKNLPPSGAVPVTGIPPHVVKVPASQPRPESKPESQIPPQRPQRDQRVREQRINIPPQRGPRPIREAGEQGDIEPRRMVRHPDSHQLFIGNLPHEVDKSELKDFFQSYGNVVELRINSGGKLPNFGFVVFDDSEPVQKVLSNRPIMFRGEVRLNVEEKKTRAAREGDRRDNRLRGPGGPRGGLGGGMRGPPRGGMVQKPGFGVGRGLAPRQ
Constant ends, left off below: GGGAGUUCUACAGUCCGACGAUC … UGGAAUUCUCGGGUGUCAAGG
| Strand | log2 enrichment |
| --- | --- |
| AGUCCUGUGCUACACAUCGUAUGUACCGAAUCGGAAAAAGGGGAAAAAGGGAAAAAGGAAAGUAUUAUGUUACGCCGUUCGGAUCUGCAC | -0.487 |
| ACCAUGCAGGUGGGCAUCUUUGGGAAGUGGGGCAAAAGGGGGAUAGGGAGGGGGGUAACACUUUGGGAACAGGUGGUCCCAGGUCGUUUC | 0.489 |
| GUCCUGUGCUACACAUCGUAUGUACCGAAUCGGUUUUUUUGGAAAAAGGUUUUUUUGGAAAGUAUUAUGUUACGCCGUUCGGAUCUGCAC | -2.47 |
| CCUGUGCUACACAUCGUAUGUACCGAAUCGGGGAAAAAGGGGAAAAAGGGGAAAAAGGGGAAAGUAUUAUGUUACGCCGUUCGGAUCUGC | 0.921 |
| UAACUUUAGAGGAGGAUCUGAUGGAUAUGGCAGUGGACGUGGAUUUGGGGAUGGCUAUAAUGGGUGUGGAGGAGGACCUGGAGGUGGCAA | 0.132 |
| CAAGUCCUGUGCUACACAUCGUAUGUACCGAAUCGGGAGGGUUUUUGGGUUUGGGAAAGUAUUAUGUUACGCCGUUCGGAUCUGCACUUC | -0.551 |
| UCCUGUGCUACACAUCGUAUGUACCGAAUCGGGUUUUUGGGUUUUUGGGGUUUUUGGGGAAAGUAUUAUGUUACGCCGUUCGGAUCUGCA | -0.0608 |
| CAAGUCCUGUGCUACACAUCGUAUGUACCGAAUCGGAAAAGGAAAAGGGGAAAAGGAAAGUAUUAUGUUACGCCGUUCGGAUCUGCACUU | -0.85 |
| GUUUGAUGAUCGUGGACGGAGUGAUUACGAUGGCAUUGGCAGCCGUGGUGACAGAAGUGGCUUUGGCAAAUUUGAACGUGGUGGAAACAG | 1.31 |
| CACAGACAUCACGCACCCACACAGACACAGAGGGAAGGGGUUGGGAUGGGGACAGGGUGCACAGCAGGGCGGGGUAGGACCCCAGCCCCU | 0.374 |
| UCCUGUGCUACACAUCGUAUGUACCGAAUCGGGAAAAAGGGGAAAAAGGGGAAAAAGGGGAAAGUAUUAUGUUACGCCGUUCGGAUCUGC | -0.105 |

Study 5 — target: DDIT3, bZIP domain (human); method: DHFR protein complementation; sample: yeast; reference: wild-type JUN-FOS pair; direction: higher = stronger binding
Notes: single substitutions, most at no-binding floor
Parent: JUN, bZIP domain (human); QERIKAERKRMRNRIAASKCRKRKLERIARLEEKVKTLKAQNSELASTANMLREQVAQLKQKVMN; partner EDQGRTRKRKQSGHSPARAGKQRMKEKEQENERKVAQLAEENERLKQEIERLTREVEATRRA
| Substitution | binding fitness [natural log] |
| --- | --- |
| E33P | -1.23 |
| N42A | -0.75 |
| R30S | 0.108 |
| A46T | 0.124 |
| S47F | 0.0429 |
| V35A | 0.0171 |
| T48V | 0.0542 |
| T37C | 0.0529 |
| Q58T | 0.0121 |
| I28W | 0.00443 |
| E54R | -0.088 |
| L52C | -1.23 |
| L31D | -0.941 |
| E54Q | -0.191 |
| S43H | 0.0572 |
| R53S | -0.39 |

Study 6 — method: DHFR PCA, deep sequencing; sample: yeast; added: (+)-ABA 1.4 µM; reference: wild-type fitted maximum; direction: higher = stronger binding
Target: ABI1, truncated, D143A, DHFR fusion (Arabidopsis thaliana)
Notes: methotrexate growth selection, single substitutions
Parent: PYL1, truncated, DHFR fusion (Arabidopsis thaliana); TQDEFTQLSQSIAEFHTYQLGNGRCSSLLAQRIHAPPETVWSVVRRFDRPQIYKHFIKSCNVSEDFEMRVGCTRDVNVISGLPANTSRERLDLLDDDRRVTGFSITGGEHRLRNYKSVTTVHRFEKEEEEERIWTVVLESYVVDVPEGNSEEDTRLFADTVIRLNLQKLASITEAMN; partner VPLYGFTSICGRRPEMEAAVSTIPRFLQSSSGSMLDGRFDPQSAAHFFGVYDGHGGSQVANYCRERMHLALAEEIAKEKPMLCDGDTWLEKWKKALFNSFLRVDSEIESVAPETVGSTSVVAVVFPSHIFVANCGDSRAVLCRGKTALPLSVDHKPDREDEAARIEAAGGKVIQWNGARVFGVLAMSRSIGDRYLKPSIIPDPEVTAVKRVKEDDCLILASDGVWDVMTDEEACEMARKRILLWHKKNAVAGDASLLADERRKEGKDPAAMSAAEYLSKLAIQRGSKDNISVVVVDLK
| Substitution | relative binding score |
| --- | --- |
| D65W | 9.91% |
| F56M | 11.3% |
| V121M | 2.44% |
| F47N | 5.53% |
| L166D | 7.5% |
| S27M | 6.89% |
| V78A | 2.28% |
| E125K | 59.6% |
| S87H | 25.1% |
| S63E | 49.7% |
| Y141V | -1.55% |
| N61Q | 71.7% |
| D65P | 67.6% |
| T1K | 53.7% |
| V43D | -8.41% |
| L29W | 1.76% |
| K126P | 88.1% |
| F5W | 63.3% |
| N165E | 18.1% |
| V118Y | 0.473% |
| D75M | 69.4% |
| N85M | 60.1% |
| I12Y | 7.26% |

Mixed results
| Substance | target | test | system | conditions | how to read | endpoint | result |
| --- | --- | --- | --- | --- | --- | --- | --- |
| PhoQ, residues 284 288 289 292 302 303 HSSMNL | PhoP, residues 12 14 15 18 19 SEGLL (Escherichia coli, UniProt P23836) | Sort-seq, item: YFP reporter | E. coli | PhoQ-PhoP variant library, added: 10 µM Mg2+ | reference: high Mg2+ state, higher = stronger signaling | fold induction | 11.2 |

Excerpt of the above (study 3):
| Strand | E-score |
| --- | --- |
| AAACCACC | -0.0464 |
| GTACGGCA | 0.391 |
| GCTAGCCA | -0.0602 |
| CACAGGCC | -0.108 |
| CAAAGCCC | 0.0942 |
| GAACCCCA | -0.172 |
| AAATAACT | -0.194 |
| CAAGACAA | -0.142 |
| AGGAGCTG | -0.265 |
| CATGCCTA | -0.146 |
| ATTGGTGA | -0.214 |
| CCAATTTA | -0.194 |
| GCCAAGCA | -0.13 |
| AAATGGTC | -0.189 |
| TACGGCAA | 0.371 |
| TCGGAAGA | -0.0385 |
